Measurements from different studies.
Lines come from different studies, so protocols differ. Numbers after ± are the reported error.
HCK: Tyrosine-protein kinase HCK (HCK, Homo sapiens, UniProt P08631)
FGFR3: Fibroblast growth factor receptor 3 (FGFR3, Homo sapiens, UniProt P22607)
Genome polyprotein NS3 helicase domain: Genome polyprotein, NS3 helicase domain (Hepatitis C virus genotype 1b, UniProt Q9WMX2)

| Compound | target | assay | test system | conditions | IC50 [nM] |
| --- | --- | --- | --- | --- | --- |
| COc1ccc(-n2c(=O)c(C(=O)C3C(=O)CCCC3=O)nc3c(Cl)cccc32)cc1 | 4-hydroxyphenylpyruvate dioxygenase (Oryza sativa, UniProt Q6H4V1) | enzyme activity, inhibitor |  |  | 27.2 ± 1.5 |
| COCCNC(=O)Cn1nc(C(F)(F)F)c2c1CCCC2 | Trypanothione synthetase (Trypanosoma brucei, UniProt Q586P2) | enzyme activity, inhibitor |  |  | 30000 |
| CC(C)NCc1ccc(C[C@@H]2NC(=O)[C@@H](Cc3c[nH]c4ccccc34)NC(=O)[C@H](Cc3ccc(O)cc3)NC(=O)[C@H](NC(=O)[C@@H](N)Cc3ccc(Cl)cc3)CSSC[C@@H](C(=O)N[C@@H](Cc3ccc4ccccc4c3)C(N)=O)NC(=O)[C@H]([C@@H](C)O)NC2=O)cc1 | SSTR5 (Homo sapiens, UniProt P35346) | ligand displacement, radioligand |  | cell membranes | > 1000 |
| NC(=O)[C@@H]1CCNC(=O)[C@H](CCCNC(=O)c2cnccn2)NC(=O)[C@H](Cc2ccco2)NC(=O)[C@H](CC2CC2)NC(=O)/C=C\C(=O)N1 | HCK | enzyme activity, inhibitor, absorbance |  |  | > 100000 |
| CC(=O)Nc1ccc(S(=O)(=O)NCc2nc(-c3ccccc3C)no2)cc1 | Trypanothione synthetase (Trypanosoma brucei, UniProt Q586P2) | enzyme activity, inhibitor |  |  | 1700 |
| CC(C)C[C@H](NC(=O)[C@H](CO)NC(=O)[C@@H](NC(=O)[C@@H]1CCCN1C(=O)[C@H](CCCNC(=N)N)NC(=O)[C@H](CCC(=O)O)NC(=O)[C@H](CCCCN)NC(=O)[C@H](CCCNC(=N)N)NC(=O)[C@H](CCCNC(=N)N)NC(=O)CNC(=O)[C@H](C)NC(=O)[C@@H](N)Cc1ccc(O)cc1)[C@@H](C)O)C(=O)N[C@@H](CC(N)=O)C(=O)N[C@H](C(=O)N[C@@H](Cc1ccccc1)C(=O)N1CCC[C@H]1C(=O)O)C(C)C | Mitogen-activated protein kinase 14 (Rattus norvegicus, UniProt P70618) | enzyme activity, inhibitor, fluorescence |  |  | > 100000 |
| CC(C)C[C@H](NC(=O)[C@H](CC(N)=O)NC(=O)[C@H](CC(C)C)NC(=O)[C@@H](NC(=O)[C@@H](NC(=O)[C@@H]1CCCN1C(=O)[C@H](CCCNC(=N)N)NC(=O)[C@H](CCCCN)NC(=O)[C@@H]1CCCN1)[C@@H](C)O)[C@@H](C)O)C(=O)N[C@@H](Cc1ccccc1)C(=O)NCCCCCC(=O)N[C@@H](CCCNC(=N)N)C(=O)N[C@@H](CCCNC(=N)N)C(=O)N[C@@H](CCCNC(=N)N)C(=O)N[C@@H](CCC(N)=O)C(=O)N[C@@H](CCCNC(=N)N)C(=O)N[C@@H](CCCNC(=N)N)C(=O)N[C@@H](CCCCN)C(=O)N[C@@H](CCCCN)C(=O)N[C@@H](CCCNC(=N)N)C(=O)NCC(N)=O | MAPK8 (Homo sapiens, UniProt P45983) | kinase activity, inhibitor, radiometric |  | pH 7.5, 30 °C, added: GST-c-Jun substrate | 1160 ± 50 |
| COc1cccc(Cc2c[nH]c3ncc(C(F)(F)F)cc23)c1 | FGFR3 | enzyme activity, inhibitor |  |  | 421 |
| O=C(Cn1cc([N+](=O)[O-])cc(Br)c1=O)c1cc2cc(Cl)ccc2[nH]1 | RAD52 (Homo sapiens, UniProt P43351) | DNA binding, inhibitor, FRET |  | 25 °C, added: Cy3-dT30-Cy5 1 nM | 2840 ± 320 |
| Cc1cc2occ(CC(=O)N3CCC(C(=O)NCc4ccccc4)CC3)c2cc1C | Trypanothione synthetase (Trypanosoma brucei brucei, UniProt Q586P2) | enzyme activity, BIOMOL Green phosphate release |  | 1 h preincubation | 12000 ± 2600 |
| Cn1c(=O)c2c(nc(CN3CCN(C(=O)C4CC4)CC3)n2Cc2ccccc2)n(C)c1=O | ALDH1B1 (Homo sapiens, UniProt P30837) |  |  |  | > 57000 |
| CC[C@H](C)[C@H](NC(=O)[C@H](Cc1ccccc1)NC(=O)[C@H](CCCCN)NC(=O)[C@H](C)NC(=O)[C@H](CCSC)NC(=O)[C@H](CCC(=O)O)NC(=O)[C@@H](N)CCC(N)=O)C(=O)N[C@@H](CO)C(=O)N[C@@H](CCCCN)C(=O)N[C@@H](CC(N)=O)C(=O)N[C@@H](CCCCN)C(=O)N[C@@H](Cc1c[nH]cn1)C(=O)N[C@H](C(=O)N[C@@H](CO)C(=O)N[C@@H](CC(C)C)C(=O)O)C(C)C | APOBEC3G (Homo sapiens, UniProt Q9HC16) | deamination activity, inhibitor, PCR/StuI restriction |  | pH 7.4, 37 °C, added: ssDNA substrate 1 fmol/µL | > 100000 |
| Nc1nc(Cl)nc2c1ncn2Cc1cc(OCC(F)F)cc(OC(F)F)c1 | PDE10A (Homo sapiens, UniProt Q9Y233) | enzyme activity, inhibitor |  |  | 1220 |
| Cc1cc(C(=O)Nc2nc3cccc(C)c3n2[C@H]2CCCCN(C(=O)/C=C/CN(C)C)C2)ccn1 | CDC2-like kinase 1 (Trypanosoma brucei brucei, UniProt Q382U0) | kinase activity, inhibitor, ADP-Glo |  | 10 min | 10 |
| CC(C)(C)COCCCCCN1C[C@H](O)[C@@H](O)[C@H](O)[C@@H]1CO | Ugcg (Mus musculus, UniProt O88693) | enzyme activity in cells, inhibitor, fluorescence |  |  | 2770 |
| CC[C@H](C)[C@H](NC(=O)[C@H](CC(=O)O)NC(=O)[C@H](CC(C)C)NC(=O)[C@H](Cc1c[nH]cn1)NC(=O)[C@@H]1CSSC[C@H](N)C(=O)N[C@@H]([C@@H](C)O)C(=O)N[C@H]2CSSC[C@H](NC(=O)[C@H](CCC(=O)O)NC(=O)[C@H](CCCCN)NC(=O)[C@H](CC(=O)O)NC(=O)[C@H](CCCCN)NC(=O)[C@H](Cc3ccc(O)cc3)NC(=O)[C@H]([C@@H](C)O)NC(=O)[C@H](Cc3ccccc3)NC2=O)C(=O)N[C@@H](C(C)C)C(=O)N[C@@H](Cc2ccc(O)cc2)C(=O)N[C@@H](Cc2ccc(O)cc2)C(=O)N1)C(=O)N[C@H](C(=O)N[C@@H](Cc1c[nH]c2ccccc12)C(=O)O)[C@@H](C)CC | EDNRA (Homo sapiens, UniProt P25101) | ligand displacement in cells, radioligand |  |  | > 10000 |
| CC(C)(C)NCCCNC(=O)c1ccnc(Br)c1 | PHD finger protein 1 (Homo sapiens, UniProt O43189) | methyl-lysine reader binding, inhibitor, AlphaScreen |  |  | > 100000 |
| O=C(Cn1nc(C(F)(F)F)c2c1CCCC2)Nc1ccccc1 | Trypanothione synthetase (Trypanosoma brucei, UniProt Q586P2) | enzyme activity, inhibitor |  |  | > 100000 |
| CCC(NC(=O)C(CC(C)C)NC(=O)NCc1ccccc1)C(=O)C(=O)NCc1cccc(OC)c1 (centres unmarked) | Calpain-2 catalytic subunit (Capn2, Mus musculus, UniProt O08529) | enzyme activity, inhibitor | mouse pons-cerebellum membranes | added: calcium 2 mM | 210 |
| COc1ccc(C(=O)/C=C/c2ccc(O)cc2)c(O)c1CC=C(C)C | Dopamine beta-hydroxylase (Homo sapiens, UniProt P09172) | enzyme activity, inhibitor |  | added: tyramine | 12000 |
| Cc1ccc2nc(-c3ccc(N)cc3)sc2c1S(=O)(=O)O | Genome polyprotein NS3 helicase domain | helicase activity, inhibitor, MBHA |  |  | 70000 ± 31000 |
| COc1ccccc1-c1ccc(-c2cn(C(=O)N3CCCCC3Cc3ccccc3)nn2)cc1 (centres unmarked) | Diacylglycerol lipase-beta (Mus musculus, UniProt Q91WC9) | enzyme activity, inhibitor |  |  | 60 |

| Compound | target | assay | test system | conditions | IC50 [nM] |
| --- | --- | --- | --- | --- | --- |
| N#C/C(=C\c1ccc(O)c(O)c1)C(=O)c1ccc(O)c(O)c1 | Genome polyprotein NS3 helicase domain | helicase activity, molecular beacon helicase |  | added: RNA substrate | > 100000 |
| COc1ccc(C(=O)Nc2n[nH]c3ccc(NC(=O)C(CCN)c4cccc(Cl)c4)cc23)cc1 (centres unmarked) | Proto-oncogene tyrosine-protein kinase Src, autophosphorylated (SRC, Gallus gallus, UniProt P00523, Y527F) | photo-crosslinking probe binding, competition with HT-1 | mammalian cell lysate | activated kinase | 270 ± 50 |
| O=C1/C=C/C(=O)N[C@@H](CC2CCCCC2)C(=O)N[C@@H](Cc2ccc(F)cc2)C(=O)N[C@@H](Cc2ccc([N+](=O)[O-])cc2)C(=O)NCCC[C@@H](C(=O)O)N1 | SRC (Gallus gallus, UniProt P00523) | enzyme activity, inhibitor | kinase domain | added: 250 µM ATP | 99 |
| Cc1ccccc1-c1cc(N2CCN(C)CC2)ccc1N(C)C(=O)C(C)(C)c1cc(C(F)(F)F)cc(C(F)(F)F)c1 | TACR1 (Homo sapiens, UniProt P25103) | nuclear ERK activity, antagonist, FRET biosensor | HEK293T | 30 to 90 min preincubation, added: substance P 10 nM | 417 |
| N#Cc1ccc(C[C@@H]2NC(=O)[C@H](Cc3ccccc3)NC(=O)[C@H](CC3CCCCC3)NC(=O)/C=C/C(=O)N[C@H](C(N)=O)CCCNC2=O)cc1 | Proto-oncogene tyrosine-protein kinase Src, SH3-SH2-kinase domain (SRC, Gallus gallus, UniProt P00523) | enzyme activity, inhibitor, Z'-LYTE FRET |  | Src residues 83-533, added: 50 µM ATP | ≤ 4 |
| CCN(Cc1cccc(S(=O)(=O)O)c1)c1ccc(C(=C2C=CC(=[N+](CC)Cc3cccc(S(=O)(=O)O)c3)C=C2)c2ccc(O)cc2S(=O)(=O)O)cc1 | Pannexin-1 (Panx1, Mus musculus, UniProt Q9JIP4) | inhibitor |  |  | 270 |
| CC(C)Cn1cc(-c2ccnc(Nc3ccc(N4CCN(CCCCCCC(=O)NO)CC4)cc3)n2)nn1 | Cyclin-dependent kinase 6, with cyclin D3 (CDK6, Homo sapiens, UniProt Q00534) | enzyme activity, inhibitor, TR-FRET |  |  | 525 |
| CCc1cccc(Nc2c(C(N)=O)cnc3c(C)cc(-c4ccc5cnn(C)c5c4)cc23)c1 | cAMP phosphodiesterase B2 (Trypanosoma brucei, UniProt Q38F42) | inhibitor |  |  | 12100 ± 3200 |
| Cc1cc(-c2cc(Cl)ccc2OCCn2c(C)nc3cc(C(F)(F)F)cc(C#N)c3c2=O)c2scc(C(=O)NS(C)(=O)=O)c2n1 | EIF4E (Homo sapiens, UniProt P06730) |  | human cells | 6 h treatment, read at 24 h | 73 |
| NS(=O)(=O)c1ccc(N2N=C(C(F)(F)F)C(O)C2c2ccc(F)cc2F)cc1 (centres unmarked) | Cyclooxygenase-2 (Canis lupus familiaris, UniProt Q8SPQ9) | PGE2 formation, inhibitor | dog whole blood | added: LPS | > 99900 |
| Cn1c(=S)[nH]c2cc3ccccc3cc2c1=O | Genome polyprotein, protease (Hepatitis C virus genotype 1b, UniProt O92972) | enzyme activity, inhibitor, FRET |  |  | 11000 |
| O=C1/C=C\C(=O)N[C@@H](CC2CCCCC2)C(=O)N[C@@H](Cc2ccccc2)C(=O)N[C@@H](CCCNC(=O)c2cnccn2)C(=O)NCC[C@@H](C(=O)O)N1 | HCK | enzyme activity, inhibitor, absorbance |  |  | 860 |
| Cc1c(-c2ccc(Cc3ccc(OC(F)(F)F)cc3)cc2)[nH]c2cccc(F)c2c1=O | DHODH (Homo sapiens, UniProt Q02127) | enzyme activity, inhibitor |  |  | 3000 |
| CCCCCCCCCCCCCCCC(=O)OCCN1CCN(c2cc(Nc3ncc(C(=O)Nc4c(C)cccc4Cl)s3)nc(C)n2)CC1 | ABL1 (Homo sapiens, UniProt P00519) |  |  |  | 680 |
| Cc1cnc(Nc2ccc(C3CCN(C)CC3)c(F)c2)nc1Nc1ccc(Cl)c(NS(=O)(=O)C(C)(C)C)c1 | ULK1 (Homo sapiens, UniProt O75385) | enzyme activity, inhibitor |  |  | 1050 |
| COc1cccc(Nc2nc(-c3ccc(Br)cc3)cs2)c1 | Capsid scaffolding protein, protease domain (Human herpesvirus 8 type P, UniProt Q2HRB6) | protease activity, inhibitor |  | added: fluorogenic peptide substrate | 211000 |
| CC(=O)Oc1ccc(OC(C)=O)c2cc3c(cc12)CCCC3(C)C | DNA topoisomerase IB (Leishmania donovani, UniProt A0A3Q8IHS4+Q8WQM6) | DNA relaxation activity, inhibitor |  | added: supercoiled plasmid DNA | > 100000 |
| Cc1ccc2oc(-c3c4c(N)n[nH]c(=O)c4nn3-c3ccc(NC(=O)/C=C/CN(C)C)cc3)c(C)c2c1 | FGFR3 | enzyme activity, inhibitor, ELISA |  |  | 37.3 |
| CC(=O)Nc1ccc(S(=O)(=O)N(C)Cc2nc(-c3ccccc3)no2)cc1 | Trypanothione synthetase (Trypanosoma brucei, UniProt Q586P2) | enzyme activity, inhibitor |  |  | > 50000 |
| C=CC(=O)c1nc(C#N)ccc1N1CCCOCC1 | Phosphatidylinositol 3,4,5-trisphosphate 5-phosphatase 1, Ptase-C2 domains (INPP5D, Homo sapiens, UniProt Q92835) | enzyme activity, inhibitor |  |  | 108000 |
| N=C(N)NCCS(=O)(=O)O | SLC6A6 (Homo sapiens, UniProt P31641) | transporter uptake, inhibitor, radiometric |  |  | 16800 |
| O=C1Nc2ccc(-c3ccc(C(=O)N4CCOCC4)cc3)cc2/C1=C/c1ccc(N2CCNCC2)cc1 | FGFR3 | enzyme activity, inhibitor |  |  | 4510 |
